Experimental data collected from several papers.
A part holds a random share of what one study measured. Positions count from the first letter of the parent shown.

Series 1
Target: RNA binding protein fox-1 homolog 2, RRM domain, GST-SBP tag (RBFOX2, Homo sapiens, UniProt O43251-10, residues 100-194)
Technique: RNA Bind-n-Seq
Molecule type: RNA
Sample: in vitro
Concentration: 365 nM
Setting: natural RNA segment, single round, ends assumed
Reference: no-protein control
Reading: higher = stronger binding
Constant ends, left off below: GGGAGUUCUACAGUCCGACGAUC … UGGAAUUCUCGGGUGCCAA
Residues (chain): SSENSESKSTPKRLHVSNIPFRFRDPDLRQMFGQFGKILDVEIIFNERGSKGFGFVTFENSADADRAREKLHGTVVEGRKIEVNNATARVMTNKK
| Oligonucleotide | RBNS enrichment (R) |
| --- | --- |
| AAGCUGAAAUUGCGUUCUAAGAGGUGAAGUGAUUUUUUUUCUGAAACUCACACAACUAGGAAGUGGCUGAGUCAGGACUUGAACCCAGGUCUCCCUGGAUCAGAACAGGA | 0.37 |
| UGUGUGAUUUUUUUUUUAAAUUUAUGUUGCGGAAAGGUAACCACAAAGUUAUGAUGAACUGCAAACAUCCAAAGGAUGUGAGAGUUUUUCUAUGUAUAAUGUUUUAUACA | 0.325 |
| AUUUUACUUUUUUGUAUACAUAUGUGUAACUUACACUGUUAUUAAUUCAACGGAUAUAUAUUUAUCAAUGUAGACUUCUCUGUGAAGUCAAGGUUUAUUUUCACAUGAGU | 0.675 |
| GCCAGAAAGGGGCAUGAGGGCUCUUGCGAGACUGAAGUGCUAUCUUCUCUGGACUAGAGAGAAGAGGGAGAGGACUGGAAGGGAUCACCAAAUCUCAAAGCAAUGAGAAG | 0.71 |
| CCCCCUCUCCUCUCUGUAAGCCCAUGCCCUGUCUUCCCAGGGACUUGUGAGCCUCUUCCCUCGACGGUCCUCUUCUCUCCUUCCAGUCCUCUCCCCCUGCUGUCUGCAGC | 0.786 |
| AGACCUAGAAGUCACUUUUAUGAUUUAUGAUAUAUGAUGUGUUUUUUACUAUUGUAUGUCAUUUAAUUCUGAUCUGUUUAAUGCUACAAAAGUAAAGUUGAAAAGAUCUA | 0.28 |
| AACCCAUAAGCAAAUCAGAUAACCCACUGACUAUGAGAAUUACUUUAUAUAGAUAAUUCUUGACUGUAAAACAUUUUGACCAGUGUUUUACAACAUGUACAUAAGAAUAC | 0.407 |
| UAUUAUGGAAAGGAGUACAGGACCUCUUCAGUCUUCCCCUUACCAGAGGUAGCCUCUGCAAAUGGCAUACCAGAUGGGACUCUAAGAUGCUUGUGUGGUGGCUUCUUGUC | 0.61 |
| AGAAAUGUGUUGUGUUGUCUUAGCUUUAAAACAGUCACAGUUCUUGCUCUAUCAUAGAUGAACAAAUACUUUCUUGAUCAUUCUGUAAGACCAGGAGGUUGGUAAGAGUG | 0.489 |
| UGCCCUGUACCCUUGCCUCUUCCCAGUGAUAGUGGGCAUAUCCACCUCACCAAGAUAAUUCUGUACAGUGACUAGCAGAUCCUGGCCUAGGGUGGCUCAGCCGGUGUUUU | 0.344 |
| AAUUAAGCCUCAUUCAGUAGGUCUGCUGUCUGGUGGAACUUACGGAACUCAUUUCCUCCUCUAUCCCCAGCCCUUCUCCUAACUAUGGUGAUAACCAGGGCCAUAGAAGA | 0.213 |
| GAUCUAAAGCCUUUUUAUCCCAUAUCCCAAAUUCUUAUGAGCCACUCACAGCAGGCAGCAUAUGUUGAAAUAAGUUAUUACUGGUACACACCUGCAUUGCCUCACCAGUG | 1.1 |

Series 2
Target: Sal-like protein 4, full length isoform B (SALL4, Homo sapiens, UniProt Q9UJQ4-2, residues 1-616)
Technique: universal PBM
Molecule type: double-stranded DNA, one strand shown
Sample: in vitro
Concentration: not given
Setting: 8-mer, flanks averaged, mean of replicates
Reading: higher = stronger binding
| Oligonucleotide | E-score |
| --- | --- |
| CGGCACGA | -0.276 |
| GATCGAAC | -0.133 |
| CCGCCCAA | -0.202 |
| ACCTTGCA | -0.0588 |
| TCTGCAGA | 0.0055 |
| ACAGATAC | 0.155 |
| AGAAGATA | 0.239 |
| CTCCTGTA | -0.0827 |
| ACACGACT | 0.0338 |
| TAAGCAAA | 0.17 |
| ACAAGCCA | -0.0921 |
| CGGATCCA | 0.00119 |
| CAAGCTCC | -0.179 |
| AAATAATA | 0.412 |
| ACACTGCA | -0.186 |
| GGGATGTA | 0.0893 |
| AGAGCTTC | -0.162 |
| CAATTAAA | 0.219 |
| GCAACATA | 0.217 |
| ATTCACAG | 0.0603 |
| AGGTAGAG | -0.0874 |
| AGGAATAT | 0.269 |
| ACGGCGAT | -0.102 |
| CCAACATC | -0.226 |
| TATGAGAA | 0.295 |

Series 3
Target: ABI1, truncated, D143A, DHFR fusion (Arabidopsis thaliana, UniProt P49597)
Technique: DHFR PCA, dose-response
Sample: yeast
Setting: Hill fit, mean, not affinity
Together with: (+)-ABA, dose series
Reading: lower = more sensitive
Parent: PYL1, truncated, DHFR fusion (Arabidopsis thaliana, UniProt Q8VZS8); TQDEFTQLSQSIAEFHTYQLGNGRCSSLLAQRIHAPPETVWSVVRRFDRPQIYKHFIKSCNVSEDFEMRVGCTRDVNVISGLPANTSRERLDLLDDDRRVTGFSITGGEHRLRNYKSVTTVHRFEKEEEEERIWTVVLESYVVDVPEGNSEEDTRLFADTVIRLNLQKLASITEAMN
| Substitution | ABA EC50 |
| --- | --- |
| K116M | 68 µM |
| V70H | 37.6 µM |
| Q167D | 11.4 µM |
| E127P | 1.73 µM |
| V142D | 27.6 µM |
| P36M | 5.9 µM |
| T101V | 7.7 µM |
| C72I | 4.88 µM |
| L156N | 3.36 µM |
| K58M | 14.4 µM |
| G81A | 108 µM |
| V118F | 58.9 µM |
| Q31I | 14.5 µM |
| L28R | 17.1 µM |
| D96C | 88.7 µM |
| T1D | 1.7 µM |
| V161Y | 84.6 µM |
| A13S | 3.34 µM |
| V78P | 80.9 µM |
| A13F | 7.93 µM |
| P36A | 3.74 µM |
| A13D | 3.77 µM |
| C72L | 17.4 µM |
| V76N | 80 µM |
| N22V | 2.02 µM |

Series 4
Target: CCND2, cyclin fold, Cln2 fusion (human)
Technique: yeast growth competition, sequencing
Sample: yeast
Setting: weak parent motif
Reference: not given
Reading: higher = stronger binding
Parent: MICAL3 docking peptide (human); LQLRRQLSFSEDS
| Substitution | normalised enrichment score |
| --- | --- |
| D12S | -0.145 |
| S10R | 0.266 |
| F9M | -0.149 |
| L3E | -0.153 |
| R5S | -0.31 |
| L3H | -0.187 |
| L7N | 0.137 |
| R4T | -0.178 |
| L3Q | 0.0997 |
| E11H | -0.11 |
| S10N | 0.296 |
| Q6S | 0.429 |
| R5H | -0.0762 |
| L7P | -0.111 |
| R4W | 0.163 |
| Q6Y | -0.0631 |
| L7T | 0.217 |
| R5Q | -0.0869 |
| Q2M | 0.312 |
| R4H | 0.0588 |
| S10F | 0.171 |
| E11K | 0.375 |
| S8I | 0.36 |
| D12L | 0.391 |
| S10D | 0.308 |

Series 5
Target: Interferon regulatory factor 5, full length, phosphomimetic (IRF5, Homo sapiens, UniProt Q13568-2, residues 1-514, K96S/S451D/S453D/S456D/S462D)
Technique: protein-binding microarray
Molecule type: double-stranded DNA, one strand shown
Sample: in vitro
Concentration: 250 nM
Setting: 60-bp whole probe
Together with: salmon DNA 0.4 mg/ml
Reference: random background probes
Reading: higher = stronger binding
Constant ends, left off below: GCCTAGCAC … GTCTTGATTCGCTTGACGCTGCTG
| Oligonucleotide | log fluorescence [z-score] |
| --- | --- |
| GACGGTCTCGCTATCGGGACGTGCTAG | 0.726 |
| TTAGAATTGAGTTTCGATTAGTGCTAG | 9.62 |
| GACGGTTTCGGATATCGGGACGTGCTA | 6.16 |
| TGATGACTGGAGTCTGGACTAGTGCTA | -0.564 |
| CTTTCTTTATGTACTCTCTCCGTGCTA | 1.74 |
| CAGGAATTGAAAATTAGTGTTGTGCTA | 0.497 |
| TGAGATCTCAGTTTCGATTAGTGCTAG | 9.6 |
| TTAGGTATCGGACTCGGTTAGTGCTAG | 1.48 |
| CTCCCTCAGGGTTTCAGATGGTGCTAG | 0.117 |
| TATTGTTTCCTCTTTCACTGGTGCTAG | 3.69 |
| GACGGACTGCTTAACCTGACGTGCTAG | -0.214 |
| GACGGACTGAGTTTCGGGACGTGCTAG | 4.8 |
| TTAGATCGCAGTCTCGATTAGTGCTAG | 0.39 |
| GACGGTTTCGGACTGGGTACGTGCTAG | 4.18 |
| GACGGTTGCGACTATCGGGACGTGCTA | 1.45 |
| GACGATAACGGGTTTCGAGACGTGCTA | 2.61 |
| TTAGATTCCAGTTTCGGTTAGTGCTAG | 10.6 |
| CCTCCTTACTTTATGTAGGAGTGCTAG | -0.314 |
| TCATGTTTCTCAAATGTTACTGTGCTA | 1.23 |
| GACGGTTCCGGTTTCAGGACGTGCTAG | 2.05 |
| GACAGTATCGACACTGGGGACGTGCTA | 2.89 |
| GACGATTTCAGATTGGAGACGTGCTAG | 0.291 |
| TTAGAACTGAGTTTCGCTTAGTGCTAG | 6.59 |
| GGCGGTTTCGGTTCCGGGACGTGCTAG | 10 |
| TTAGGTTTAGGACTGGGTTAGTGCTAG | -0.118 |
